{"data": "Assay results collected from several papers", "note": "Parts stem from different laboratories: compare values within a part only."}
{"data": "Study 1", "target": "Phosphate system positive regulatory protein PHO4, full length, GST-tagged (PHO4, Saccharomyces cerevisiae, UniProt P07270, residues 1-312)", "method": "competition protein-binding microarray", "molecule type": "double-stranded DNA, one strand shown", "matrix": "in vitro", "concentration": "2 µM", "setting": "whole 60-bp probe, lowest competitor level", "added": "Cbf1 competitor, 0.05 µM", "reading": "higher = stronger binding", "shared flanks, not repeated": "… GTCTTGATTCGCTTGACGCTGCTG", "Target sequence (chain)": "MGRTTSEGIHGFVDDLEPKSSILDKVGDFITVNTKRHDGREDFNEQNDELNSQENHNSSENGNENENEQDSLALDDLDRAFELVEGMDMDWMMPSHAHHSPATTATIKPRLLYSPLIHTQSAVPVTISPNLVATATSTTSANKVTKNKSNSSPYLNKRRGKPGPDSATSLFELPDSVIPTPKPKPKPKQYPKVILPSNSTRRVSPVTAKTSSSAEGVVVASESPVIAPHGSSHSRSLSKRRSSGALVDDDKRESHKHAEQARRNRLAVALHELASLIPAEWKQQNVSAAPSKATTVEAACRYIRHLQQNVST"}
{"Strand": "CTTCTGTAAATTTGCCGCGTGGGTGGACGCGCCCCG", "fluorescence intensity [a.u.]": 9620}
{"Strand": "TTGTAGTTATATACCCACGTTTGCTGGGTCTAACGA", "fluorescence intensity [a.u.]": 10100}
{"Strand": "TGGAAGGAAAAAACCTTCGTGGGTAGAGGGCTCATA", "fluorescence intensity [a.u.]": 4250}
{"Strand": "CTAACGAAGGTTTGTCACCGAACTTACAAGCCAAGT", "fluorescence intensity [a.u.]": 2790}
{"Strand": "TGACAGTAATCTTTTCACGTGTGGATGGACAGACTC", "fluorescence intensity [a.u.]": 12100}
{"Strand": "TTGTGGTGAAGCCGTTTTGTGATGGGTGTGGCGCGA", "fluorescence intensity [a.u.]": 4680}
{"Strand": "GGGCTCTTTGTTTAGCATGTGCCTCATCTCTTTTTC", "fluorescence intensity [a.u.]": 10500}
{"Strand": "CTTCTGTAAATTTGACAGGTGGGTGGACGCGCCCCG", "fluorescence intensity [a.u.]": 5790}
{"Strand": "TTGGTCTACCAAATGCACCTGATTTACAAGCGGCTA", "fluorescence intensity [a.u.]": 3730}
{"Strand": "ACTTAGCGCAAACGTCACCTGGGTGGCGTTTTCCGC", "fluorescence intensity [a.u.]": 4090}
{"Strand": "TGAGGTAAGATTCTCTCCGTGCCAGCCTCTGGTGCT", "fluorescence intensity [a.u.]": 4430}
{"Strand": "TCAGGTAGATCTTAGCACGTGTGGAAGCGCATAACA", "fluorescence intensity [a.u.]": 17500}
{"Strand": "AAGAGAAAAAGTACAAACGTGTAGAGCAGGATGATC", "fluorescence intensity [a.u.]": 10100}
{"Strand": "CTAACGAAGGTTTTTCACGTGATATACAAGCCAAGT", "fluorescence intensity [a.u.]": 12100}
{"Strand": "AGGTTAACCTTTAAATATAAATATAGTAATCTTCAT", "fluorescence intensity [a.u.]": 3080}
{"Strand": "CGGGGTTAAGTTTGCGGAGTGGGTGGCTTGCAGCAG", "fluorescence intensity [a.u.]": 4210}
{"Strand": "CTTTCCCGATCTTGTCAGGTGGGTGTAGCACATTTG", "fluorescence intensity [a.u.]": 5900}
{"Strand": "CTTCTCGAATCCTAAGGCGTGCAAAGATATGAGAAT", "fluorescence intensity [a.u.]": 8360}
{"Strand": "TCCGATGGTACTCATGTAGCTGCCTCATACGAGACC", "fluorescence intensity [a.u.]": 4330}
{"data": "Study 2", "target": "Histone acetyltransferase KAT6A, winged helix 1, GST fusion (KAT6A, Homo sapiens, UniProt Q92794, residues 1-85)", "method": "protein binding microarray", "molecule type": "double-stranded DNA, one strand shown", "matrix": "in vitro", "concentration": "not given", "setting": "8-mer, flanks averaged, mean of 2 arrays, mostly near background", "relative to": "not given", "reading": "higher = stronger binding", "Construct (chain)": "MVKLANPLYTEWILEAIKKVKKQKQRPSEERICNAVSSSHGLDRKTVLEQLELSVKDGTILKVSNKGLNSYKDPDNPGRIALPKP"}
{"Strand": "AGCCCTGG", "E-score": -0.169}
{"Strand": "AGACGGGC", "E-score": 0.351}
{"Strand": "CTAGACGA", "E-score": 0.052}
{"Strand": "CCCAAAAA", "E-score": -0.187}
{"Strand": "AAAAAGTC", "E-score": -0.0758}
{"Strand": "AAGCCACT", "E-score": -0.2}
{"Strand": "CTTCTCGC", "E-score": 0.111}
{"Strand": "GTGTTCTA", "E-score": 0.0452}
{"Strand": "AAATAGAG", "E-score": -0.218}
{"Strand": "CATTCTCC", "E-score": -0.108}
{"Strand": "GAGATTGC", "E-score": 0.0903}
{"Strand": "TAGCCATA", "E-score": -0.0598}
{"Strand": "AGGAGTCG", "E-score": -0.133}
{"Strand": "CTTACAAC", "E-score": -0.179}
{"Strand": "CTCAGCTA", "E-score": -0.235}
{"Strand": "CTACTGCA", "E-score": -0.168}
{"Strand": "CACTCTGC", "E-score": -0.139}
{"Strand": "ACTTAAAT", "E-score": -0.24}
{"Strand": "CCCTGATA", "E-score": -0.186}
{"Strand": "CAAAGCGC", "E-score": 0.345}
{"Strand": "AACTAGGA", "E-score": -0.179}
{"Strand": "GAGGCCGA", "E-score": 0.116}
{"Strand": "CGGATACA", "E-score": 0.201}
{"Strand": "ATCTCTCG", "E-score": -0.0594}
{"Strand": "AACTCCGG", "E-score": 0.0951}
{"data": "Study 3", "target": "Sal-like protein 4, full length isoform B (SALL4, Homo sapiens, UniProt Q9UJQ4-2, residues 1-616)", "method": "universal PBM", "molecule type": "double-stranded DNA, one strand shown", "matrix": "in vitro", "concentration": "not given", "setting": "8-mer, flanks averaged, mean of replicates", "reading": "higher = stronger binding", "Residues (chain)": "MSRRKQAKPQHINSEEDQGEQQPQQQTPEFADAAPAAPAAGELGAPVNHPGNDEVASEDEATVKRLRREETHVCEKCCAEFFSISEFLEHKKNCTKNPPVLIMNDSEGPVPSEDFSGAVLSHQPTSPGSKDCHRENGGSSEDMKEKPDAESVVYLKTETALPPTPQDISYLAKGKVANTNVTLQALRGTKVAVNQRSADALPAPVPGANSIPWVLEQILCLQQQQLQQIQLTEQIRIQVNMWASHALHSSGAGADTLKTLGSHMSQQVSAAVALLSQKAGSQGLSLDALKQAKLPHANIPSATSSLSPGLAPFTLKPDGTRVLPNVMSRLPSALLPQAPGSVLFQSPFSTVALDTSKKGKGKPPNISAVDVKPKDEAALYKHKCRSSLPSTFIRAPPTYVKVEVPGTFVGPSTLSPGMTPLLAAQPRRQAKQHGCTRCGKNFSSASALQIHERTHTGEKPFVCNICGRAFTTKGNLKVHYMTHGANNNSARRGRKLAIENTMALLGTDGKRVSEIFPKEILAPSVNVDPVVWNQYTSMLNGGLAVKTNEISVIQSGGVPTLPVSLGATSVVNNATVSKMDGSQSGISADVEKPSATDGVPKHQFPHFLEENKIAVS"}
{"Strand": "TGTCTGAA", "E-score": 0.0121}
{"Strand": "AGCGCGCA", "E-score": -0.107}
{"Strand": "TTAACCAA", "E-score": 0.124}
{"Strand": "ATGTGGTG", "E-score": -0.0138}
{"Strand": "TGAGTGAA", "E-score": 0.0262}
{"Strand": "AAGTTATG", "E-score": 0.338}
{"Strand": "AAGGAGCG", "E-score": -0.177}
{"Strand": "ACCGTTGC", "E-score": -0.179}
{"Strand": "AGAAAATG", "E-score": 0.126}
{"Strand": "CATTTGCC", "E-score": -0.143}
{"Strand": "ATAGGCGA", "E-score": 0.0303}
{"Strand": "GACCAAGA", "E-score": -0.186}
{"Strand": "GACATCAC", "E-score": -0.0105}
{"Strand": "AGAAGGTA", "E-score": 0.165}
{"Strand": "CCCGAGTA", "E-score": -0.0177}
{"Strand": "CGAATGAC", "E-score": 0.12}
{"Strand": "TCGTTCAA", "E-score": 0.172}
{"Strand": "AGTGTGGC", "E-score": -0.104}
{"Strand": "AGTATTAG", "E-score": 0.181}
{"Strand": "AGCGGTGC", "E-score": -0.127}
{"Strand": "CAACTACA", "E-score": 0.215}
{"Strand": "GAAAACAC", "E-score": -0.0606}
{"Strand": "ACATTGAG", "E-score": 0.0665}
{"Strand": "CGACGTGC", "E-score": -0.153}
{"Strand": "ACAGAGGG", "E-score": -0.283}
{"data": "Study 4", "target": "Prothrombin, mature alpha-thrombin (F2, Homo sapiens, UniProt P00734)", "method": "aptamer microarray, sandwich", "molecule type": "DNA with 2'F-ANA", "matrix": "in vitro", "concentration": "200 nM", "setting": "whole 15-mer aptamer, many near background", "added": "Cy3 exosite-II aptamer, 400 nM", "reading": "higher = stronger binding", "strand": "GGTTGGTGTGGTTGG"}
{"Modification": "2'F-ANA at 3 4 6 9 10 11 12 13 14", "mean fluorescence intensity [a.u.]": 158}
{"Modification": "2'F-ANA at 1 2 4 5 7 8 9 10 12 13 14 15", "mean fluorescence intensity [a.u.]": 50.6}
{"Modification": "2'F-ANA at 1 4 5 6 8 10 11 12 14", "mean fluorescence intensity [a.u.]": 47.7}
{"Modification": "2'F-ANA at 1 2 3 4 7 8 9 12", "mean fluorescence intensity [a.u.]": 437}
{"Modification": "2'F-ANA at 2 3 5 7 8 10 12 13 14", "mean fluorescence intensity [a.u.]": 67.4}
{"Modification": "2'F-ANA at 1 3 6 8 9 11 12", "mean fluorescence intensity [a.u.]": 447}
{"Modification": "2'F-ANA at 1 3 4 5 6 7 9 12 14", "mean fluorescence intensity [a.u.]": 53.3}
{"Modification": "2'F-ANA at 4 9 10 11 13 15", "mean fluorescence intensity [a.u.]": 113}
{"Modification": "2'F-ANA at 3 4 5 6 7 9 10 11 14", "mean fluorescence intensity [a.u.]": 47.3}
{"Modification": "2'F-ANA at 2 8 9 10 11 12 13 14", "mean fluorescence intensity [a.u.]": 80.6}
{"Modification": "2'F-ANA at 3 8 11 14", "mean fluorescence intensity [a.u.]": 642}
{"Modification": "2'F-ANA at 2 3 4 5 6 7 12 14", "mean fluorescence intensity [a.u.]": 102}
{"Modification": "2'F-ANA at 2 3 7 9 10 12 15", "mean fluorescence intensity [a.u.]": 412}
{"Modification": "2'F-ANA at 1 3 4 5 8 10", "mean fluorescence intensity [a.u.]": 101}
{"Modification": "2'F-ANA at 2 4 12 13 14", "mean fluorescence intensity [a.u.]": 130}
{"Modification": "2'F-ANA at 3 4 5 7 8 13 14 15", "mean fluorescence intensity [a.u.]": 55.1}
{"Modification": "2'F-ANA at 3 10 12 14", "mean fluorescence intensity [a.u.]": 469}
{"Modification": "2'F-ANA at 1 2 7 8 10 11 14", "mean fluorescence intensity [a.u.]": 48.4}
{"Modification": "2'F-ANA at 2 3 4 5 8 11 12 13", "mean fluorescence intensity [a.u.]": 119}
{"Modification": "2'F-ANA at 1 3 5 7 9 10 15", "mean fluorescence intensity [a.u.]": 47.2}
{"Modification": "2'F-ANA at 1 2 3 5 6 8 11 12", "mean fluorescence intensity [a.u.]": 90.6}
{"Modification": "2'F-ANA at 1 3 4 6 7 9 10 13 14", "mean fluorescence intensity [a.u.]": 63.1}
{"Modification": "2'F-ANA at 4 6 8 10 12 13 15", "mean fluorescence intensity [a.u.]": 90.6}
{"note": "A few entries again (study 4):"}
{"Modification": "2'F-ANA at 1 2 4 5 7 8 9 10 12 13 14 15", "mean fluorescence intensity [a.u.]": 50.6}
{"Modification": "2'F-ANA at 1 4 5 6 8 10 11 12 14", "mean fluorescence intensity [a.u.]": 47.7}
{"Modification": "2'F-ANA at 1 2 3 4 7 8 9 12", "mean fluorescence intensity [a.u.]": 437}
{"Modification": "2'F-ANA at 2 3 5 7 8 10 12 13 14", "mean fluorescence intensity [a.u.]": 67.4}
{"Modification": "2'F-ANA at 1 3 6 8 9 11 12", "mean fluorescence intensity [a.u.]": 447}
{"Modification": "2'F-ANA at 1 3 4 5 6 7 9 12 14", "mean fluorescence intensity [a.u.]": 53.3}
{"Modification": "2'F-ANA at 4 9 10 11 13 15", "mean fluorescence intensity [a.u.]": 113}
{"Modification": "2'F-ANA at 3 4 5 6 7 9 10 11 14", "mean fluorescence intensity [a.u.]": 47.3}
{"Modification": "2'F-ANA at 2 8 9 10 11 12 13 14", "mean fluorescence intensity [a.u.]": 80.6}
